Assay results pooled from the literature.
Lines come from different studies, so protocols differ. ± marks the error that the study gave.

| SMILES | cell line | test | setting | scale | quantity | value |
| --- | --- | --- | --- | --- | --- | --- |
| Cc1ccc2ccc(Cl)c(O)c2n1 | RRCK low-efflux MDCK-II cells | – | 1.5 h, 37 °C, apical to basal | – | Papp | 9.85 ×10⁻⁶ cm/s |
| COC(=O)c1c2c(cc(O)c(=O)c1O)COC2=O | LX-2 | cell growth or viability, MTS | – | – | CC50 | 104 µM |
| CCC1(CC)CC(=O)N(C2c3cc(C(=O)NC4c5ccccc5CC4O)ccc3OC2(C)COC)C(=N)N1 (centres unmarked) | MDCK-II | – | – | – | Papp | 3.9 ± 0.5 ×10⁻⁶ cm/s |
| Cc1ccc2cc(Cl)cc(O)c2n1 | RRCK low-efflux MDCK-II cells | – | 1.5 h, 37 °C, apical to basal | – | Papp | 1.41 ×10⁻⁶ cm/s |
| Cc1ccc(C)c(/C=C/C(=O)c2ccc(O)cc2)c1 | U-118-MG | cell growth, MTT | 72 h | – | IC50 | > 20 µM |
| COc1cc(/C=C2\CNC/C(=C\c3cc(Cl)c(O)c(OC)c3)C2=O)cc(Cl)c1O | L02 | MTT | range over 3.75 to 60 µM, 24 and 48 h | – | cytotoxicity | not toxic |
| Nc1ncnc2c1ncn2[C@@H]1O[C@H](CSCc2ccc(Cl)cc2Cl)[C@@H](O)[C@H]1O | L2 rat cells | cytotoxicity, crystal violet | – | – | CC50 | > 200 µM |
| Cc1ccc2ccc(F)c(O)c2n1 | RRCK low-efflux MDCK-II cells | – | 1.5 h, 37 °C, apical to basal | – | Papp | 2.57 ×10⁻⁶ cm/s |
| CC[C@H]1OC(=O)[C@H](C)[C@@H](OC(=O)Cc2cccc([N+](=O)[O-])c2)[C@H](C)[C@@H](O[C@@H]2O[C@H](C)C[C@H](N(C)C)[C@H]2O)[C@](C)(OC)C[C@@H](C)C(=O)[C@H](C)[C@@H](O)[C@]1(C)O | HEK293 | cell growth or viability | – | – | CC50 | > 32 µg/mL |
| Cc1ccc2cc([N+](=O)[O-])cc(O)c2n1 | RRCK low-efflux MDCK-II cells | – | 1.5 h, 37 °C, apical to basal | – | Papp | 1.73 ×10⁻⁶ cm/s |
| Cc1nc(=S)[nH]c(C)c1/N=N/c1nnc(S)s1 | Vero | cell growth or viability, MTT | 72 h | – | CC50 | ≥ 10 µg/mL |
| O=CCNCCOn1c(=O)n(OCCNCCO)c(=O)n(OCCNCCOn2c(=O)n(OCCNCCO)c(=O)n(OCCNCCO)c2=O)c1=O | HUVEC | cell growth or viability, MTT | 12.5 µg/mL, 24 h | – | viability | 88.6% |
| O=C(Nc1cc(-c2ccnc3[nH]ccc23)c(Cl)cn1)[C@H]1CCC[C@@H](NC(=O)C(F)(F)F)C1 | MDCK-MDR1 cells | permeability | time not given, basolateral to apical | – | recovery | 105% |
| Cc1ccc2c(C#N)ccc(O)c2n1 | RRCK low-efflux MDCK-II cells | – | 1.5 h, 37 °C, apical to basal | – | Papp | 2.36 ×10⁻⁶ cm/s |
| O=c1oc2cc(O)ccc2cc1-n1cc(COc2ccccc2)nn1 | J774 | cell growth or viability, ATP luminescence | 72 h | – | CC50 | > 80 µM |
| COC(=O)c1c(CCl)cc(O)c(=O)c(O)c1C(=O)OC | LX-2 | cell growth or viability, MTS | – | – | CC50 | > 100 µM |

| SMILES | cell line | test | setting | scale | quantity | value |
| --- | --- | --- | --- | --- | --- | --- |
| CCOC(=O)c1c(C(=O)OC)cn(CC(c2cn(C)c3ccccc23)c2cn(C)c3ccccc23)c1C | human primary fibroblasts | viability, MTS | 24 h | – | CC50 | > 20 µM |
| CN1CCCNC(=O)c2cccc(c2)C(=O)NCCCN(C)CCCNc2cccc3c2C(=O)c2cccc(c2C3=O)NCCC1 | HEK293 | cell growth or viability, CCK-8 | 0.15 µM, 48 h | – | viability | 91.4% |
| N=C(N)NCCC[C@@H]1NC(=O)[C@H](CCCNC(=N)N)NC(=O)[C@@H](C(c2ccccc2)c2ccccc2)NC(=O)[C@H](Cc2c[nH]c3ccccc23)NC(=O)[C@@H](C(c2ccccc2)c2ccccc2)NC(=O)[C@@H](CCCNC(=N)N)NC(=O)[C@@H](CCCNC(=N)N)NC1=O | human liver cells | MTS | 200 µg/mL, 24 h | – | viability | 80 to 82% |
| Cc1cc(NC(=O)C(=O)N2C[C@@H](C)CC[C@@H]2c2ccc3scnc3c2)cnc1N | MDCK-II | – | 2 h, passive permeability | – | Papp A to B | 19.7 ×10⁻⁶ cm/s |
| Cc1ccc2cc(Br)cc(O)c2n1 | RRCK low-efflux MDCK-II cells | – | 1.5 h, 37 °C, apical to basal | – | Papp | 0.15 ×10⁻⁶ cm/s |
| COC(=O)c1ccc(/C=C/C(=O)c2ccc(O)c(OC)c2)cc1 | U-118-MG | cell growth, MTT | 72 h | – | IC50 | 17.7 ± 1.93 µM |
| O=C1NC2(CC2)COc2ncc(F)cc2[C@H]2COCCN2c2ccn3ncc1c3n2 | CHL cells | chromosomal aberration test | 75 µg/mL, 4 h, without S9 mix | – | cells with chromosome gaps | 0.7% |
| COC(=O)c1cc(O)c(=O)c(O)cc1C | LX-2 | cell growth or viability, MTS | – | – | CC50 | 88 µM |
| Cc1cc(=O)c2c(O)c3c(O[C@@H]4O[C@H](CO)[C@@H](O)[C@H](O)[C@H]4O)cc(O)cc3cc2o1 | HK-2 co-cultured with HepaRG | MTT | 266.67 µM, 48 h | reference: untreated control | cell viability | 55.2 ± 3.07% |
| CN1C/C(=C\c2cc(Cl)c(O)c(Cl)c2)C(=O)/C(=C/c2cc(Cl)c(O)c(Cl)c2)C1 | L02 | MTT | range over 3.75 to 60 µM, 24 and 48 h | – | cytotoxicity | not toxic |
| O=C(/C=C/c1cccc(C(F)(F)F)c1)c1cccc(O)c1 | U-118-MG | cell growth, MTT | 72 h | – | IC50 | 10.1 ± 1.75 µM |
| C[C@@H]1O[C@@H](O[C@@H]2[C@@H](O)[C@H](O)[C@@H](CO)O[C@H]2c2c(O)cc(O)c3c(=O)cc(-c4ccc(O)cc4)oc23)[C@H](O)[C@H](O)[C@H]1O | Caco-2 monolayer | transwell permeability | 100 µg/mL, apical to basolateral, HBSS, DMSO 1%, with: verapamil 0.1 mg/mL | reference: verapamil alone | Papp increase | 31.3% |
| Cc1ccc2cc(C#N)cc(O)c2n1 | RRCK low-efflux MDCK-II cells | – | 1.5 h, 37 °C, apical to basal | – | Papp | 1.2 ×10⁻⁶ cm/s |
| CC(CCCOC(=O)CCC[N+](C)(C)C)C1CCC2C3CCC4CC(OC(=O)CCC[N+](C)(C)C)CCC4(C)C3CCC12C (centres unmarked) | NIH3T3 | cytotoxicity, LDH release | 5% FBS | – | IC50 | 48 µg/mL |
| Cc1ccc2c(C)ccc(O)c2n1 | RRCK low-efflux MDCK-II cells | – | 1.5 h, 37 °C, apical to basal | – | Papp | 0.55 ×10⁻⁶ cm/s |
| Cc1cccnc1-c1csc(C(=O)Nc2cc(Cl)cc(NS(C)(=O)=O)c2)c1 | HUVEC | cell growth or viability, ATP luminescence | 10 days | – | CC50 | > 10 µM |

Some of these lines once more:
| SMILES | cell line | test | setting | scale | quantity | value |
| --- | --- | --- | --- | --- | --- | --- |
| O=C1NC2(CC2)COc2ncc(F)cc2[C@H]2COCCN2c2ccn3ncc1c3n2 | CHL cells | chromosomal aberration test | 75 µg/mL, 4 h, without S9 mix | – | cells with chromosome gaps | 0.7% |
| COC(=O)c1cc(O)c(=O)c(O)cc1C | LX-2 | cell growth or viability, MTS | – | – | CC50 | 88 µM |
